Measured values of several laboratories.
A part holds a random share of what one study measured.
UniProt O75116, sequence (whole entry, looked up): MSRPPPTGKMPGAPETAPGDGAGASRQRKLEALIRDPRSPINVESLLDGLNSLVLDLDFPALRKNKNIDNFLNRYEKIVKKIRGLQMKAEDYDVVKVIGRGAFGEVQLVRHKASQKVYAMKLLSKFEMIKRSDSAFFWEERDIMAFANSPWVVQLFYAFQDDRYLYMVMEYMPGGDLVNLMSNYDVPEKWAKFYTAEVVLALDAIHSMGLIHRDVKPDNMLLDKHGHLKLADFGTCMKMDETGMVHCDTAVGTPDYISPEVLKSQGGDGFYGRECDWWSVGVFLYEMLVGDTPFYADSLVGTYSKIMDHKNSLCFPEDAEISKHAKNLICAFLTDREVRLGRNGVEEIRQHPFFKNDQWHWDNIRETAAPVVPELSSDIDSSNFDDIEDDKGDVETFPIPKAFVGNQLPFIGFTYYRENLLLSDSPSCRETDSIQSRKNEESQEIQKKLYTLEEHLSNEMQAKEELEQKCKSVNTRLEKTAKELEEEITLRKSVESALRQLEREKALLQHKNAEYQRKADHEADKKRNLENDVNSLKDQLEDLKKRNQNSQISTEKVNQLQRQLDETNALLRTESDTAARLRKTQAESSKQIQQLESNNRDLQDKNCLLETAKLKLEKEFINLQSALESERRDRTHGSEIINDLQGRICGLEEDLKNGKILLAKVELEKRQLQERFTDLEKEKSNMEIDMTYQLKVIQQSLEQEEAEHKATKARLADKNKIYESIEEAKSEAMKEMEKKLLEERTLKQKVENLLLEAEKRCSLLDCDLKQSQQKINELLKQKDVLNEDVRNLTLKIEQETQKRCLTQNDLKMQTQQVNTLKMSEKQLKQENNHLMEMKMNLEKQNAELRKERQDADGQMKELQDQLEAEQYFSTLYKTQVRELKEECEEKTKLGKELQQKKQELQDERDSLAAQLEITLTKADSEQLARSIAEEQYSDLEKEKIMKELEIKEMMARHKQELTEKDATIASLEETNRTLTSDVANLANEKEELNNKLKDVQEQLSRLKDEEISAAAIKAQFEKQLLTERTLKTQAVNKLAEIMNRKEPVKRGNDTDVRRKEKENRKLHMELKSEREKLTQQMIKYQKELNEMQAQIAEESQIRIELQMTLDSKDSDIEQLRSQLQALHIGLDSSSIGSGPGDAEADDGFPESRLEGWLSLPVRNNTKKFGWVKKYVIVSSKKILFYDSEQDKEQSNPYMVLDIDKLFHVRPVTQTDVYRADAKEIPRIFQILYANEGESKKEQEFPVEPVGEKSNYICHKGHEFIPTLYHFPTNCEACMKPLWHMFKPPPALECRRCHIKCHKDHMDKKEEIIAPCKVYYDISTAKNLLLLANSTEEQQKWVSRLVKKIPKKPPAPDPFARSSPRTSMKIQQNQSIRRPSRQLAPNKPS
UniProt Q09013, sequence (whole entry, looked up): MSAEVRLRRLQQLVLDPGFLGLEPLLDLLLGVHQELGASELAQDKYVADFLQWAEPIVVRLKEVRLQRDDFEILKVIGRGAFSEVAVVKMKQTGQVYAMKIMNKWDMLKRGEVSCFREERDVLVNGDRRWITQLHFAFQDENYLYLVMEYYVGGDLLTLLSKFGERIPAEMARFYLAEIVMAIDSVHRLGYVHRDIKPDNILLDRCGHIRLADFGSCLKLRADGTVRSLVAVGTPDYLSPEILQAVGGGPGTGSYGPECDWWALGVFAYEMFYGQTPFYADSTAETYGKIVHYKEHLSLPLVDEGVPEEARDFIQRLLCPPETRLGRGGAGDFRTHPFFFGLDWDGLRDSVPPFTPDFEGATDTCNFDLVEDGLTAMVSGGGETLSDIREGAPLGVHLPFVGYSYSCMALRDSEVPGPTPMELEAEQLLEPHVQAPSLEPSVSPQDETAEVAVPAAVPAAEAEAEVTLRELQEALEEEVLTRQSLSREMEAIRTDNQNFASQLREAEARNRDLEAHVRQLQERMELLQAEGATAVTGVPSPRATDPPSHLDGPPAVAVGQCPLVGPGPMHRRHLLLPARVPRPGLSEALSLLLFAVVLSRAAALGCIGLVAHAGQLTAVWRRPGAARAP
UniProt P23458, sequence (whole entry, looked up): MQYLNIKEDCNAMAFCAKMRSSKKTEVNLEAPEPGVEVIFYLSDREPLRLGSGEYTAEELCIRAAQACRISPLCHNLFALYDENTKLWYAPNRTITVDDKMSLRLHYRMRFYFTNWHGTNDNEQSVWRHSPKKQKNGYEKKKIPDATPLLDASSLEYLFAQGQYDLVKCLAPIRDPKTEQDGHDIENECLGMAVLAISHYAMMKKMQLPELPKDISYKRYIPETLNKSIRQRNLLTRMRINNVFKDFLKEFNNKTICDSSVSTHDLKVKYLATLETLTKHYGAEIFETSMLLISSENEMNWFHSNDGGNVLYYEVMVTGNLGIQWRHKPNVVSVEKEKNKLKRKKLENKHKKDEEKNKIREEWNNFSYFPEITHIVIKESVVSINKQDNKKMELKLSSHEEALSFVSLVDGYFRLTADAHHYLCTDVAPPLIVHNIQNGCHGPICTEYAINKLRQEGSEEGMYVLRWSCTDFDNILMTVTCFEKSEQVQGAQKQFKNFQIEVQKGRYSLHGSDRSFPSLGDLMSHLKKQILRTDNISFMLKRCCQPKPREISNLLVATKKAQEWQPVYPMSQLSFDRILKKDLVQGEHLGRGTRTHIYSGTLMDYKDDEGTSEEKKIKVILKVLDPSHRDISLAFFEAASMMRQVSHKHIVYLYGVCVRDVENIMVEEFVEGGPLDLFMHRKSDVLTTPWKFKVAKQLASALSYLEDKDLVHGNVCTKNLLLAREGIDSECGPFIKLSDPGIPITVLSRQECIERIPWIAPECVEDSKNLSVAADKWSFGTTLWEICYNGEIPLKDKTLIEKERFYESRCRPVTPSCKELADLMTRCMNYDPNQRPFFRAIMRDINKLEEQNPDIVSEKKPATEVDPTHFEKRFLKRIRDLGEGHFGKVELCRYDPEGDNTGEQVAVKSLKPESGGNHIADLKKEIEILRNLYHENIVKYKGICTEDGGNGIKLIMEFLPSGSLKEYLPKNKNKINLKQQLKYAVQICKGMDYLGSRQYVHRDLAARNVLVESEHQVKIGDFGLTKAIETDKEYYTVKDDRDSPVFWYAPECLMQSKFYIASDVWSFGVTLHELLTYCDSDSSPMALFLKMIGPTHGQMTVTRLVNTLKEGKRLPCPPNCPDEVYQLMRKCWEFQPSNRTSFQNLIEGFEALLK
UniProt Q96NX5, sequence (whole entry, looked up): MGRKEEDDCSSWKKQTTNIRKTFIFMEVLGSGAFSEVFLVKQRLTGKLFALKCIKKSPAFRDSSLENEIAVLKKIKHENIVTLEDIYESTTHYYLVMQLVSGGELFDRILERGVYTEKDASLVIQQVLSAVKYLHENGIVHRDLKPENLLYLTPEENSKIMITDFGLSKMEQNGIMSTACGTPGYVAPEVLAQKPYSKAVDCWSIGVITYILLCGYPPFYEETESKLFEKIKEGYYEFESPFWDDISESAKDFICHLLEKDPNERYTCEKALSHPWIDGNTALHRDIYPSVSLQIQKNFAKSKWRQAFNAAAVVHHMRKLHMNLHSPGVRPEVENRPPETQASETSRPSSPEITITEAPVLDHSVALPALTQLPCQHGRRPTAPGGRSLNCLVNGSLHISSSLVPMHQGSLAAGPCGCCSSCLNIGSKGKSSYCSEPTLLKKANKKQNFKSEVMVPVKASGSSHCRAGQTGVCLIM
UniProt P10721, sequence (whole entry, unmodified, looked up): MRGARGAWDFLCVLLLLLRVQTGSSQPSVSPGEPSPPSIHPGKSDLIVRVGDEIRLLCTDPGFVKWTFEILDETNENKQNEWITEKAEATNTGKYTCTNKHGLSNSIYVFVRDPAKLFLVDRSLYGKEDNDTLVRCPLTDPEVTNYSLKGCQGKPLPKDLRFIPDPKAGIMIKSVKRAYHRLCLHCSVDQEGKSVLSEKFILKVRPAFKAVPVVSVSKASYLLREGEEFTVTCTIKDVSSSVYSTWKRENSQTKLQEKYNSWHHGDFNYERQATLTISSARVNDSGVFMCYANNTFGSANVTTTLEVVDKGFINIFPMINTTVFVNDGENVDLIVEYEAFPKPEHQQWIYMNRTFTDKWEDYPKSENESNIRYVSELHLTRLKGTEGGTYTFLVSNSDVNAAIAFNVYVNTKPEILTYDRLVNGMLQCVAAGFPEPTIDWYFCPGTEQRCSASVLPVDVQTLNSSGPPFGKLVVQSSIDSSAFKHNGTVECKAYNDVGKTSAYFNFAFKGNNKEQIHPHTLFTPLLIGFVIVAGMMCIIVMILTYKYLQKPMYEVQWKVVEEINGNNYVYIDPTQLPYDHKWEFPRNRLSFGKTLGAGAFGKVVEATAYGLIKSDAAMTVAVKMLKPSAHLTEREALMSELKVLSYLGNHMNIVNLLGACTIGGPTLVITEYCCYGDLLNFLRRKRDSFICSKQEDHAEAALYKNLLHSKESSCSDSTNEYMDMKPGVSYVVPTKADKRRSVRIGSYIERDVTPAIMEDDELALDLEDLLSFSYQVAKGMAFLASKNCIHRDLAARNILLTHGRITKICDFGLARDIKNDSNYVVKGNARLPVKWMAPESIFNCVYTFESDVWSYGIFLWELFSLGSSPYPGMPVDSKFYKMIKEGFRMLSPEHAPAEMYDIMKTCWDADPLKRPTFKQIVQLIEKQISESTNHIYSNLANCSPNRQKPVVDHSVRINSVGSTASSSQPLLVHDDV

Study 1 — tested at: 0.1 µM; quantity: remaining binding
SMILES: Cc1cc(C)c(-n2ccn3nc(-c4cccnc4)cc23)cc1NC(=O)c1cc(C#N)cc(S(F)(F)(F)(F)F)c1
Calcium/calmodulin-dependent protein kinase type 1G (CAMK1G, Homo sapiens, UniProt Q96NX5); cell-free assay, competition with immobilised ligand: 100%
Protein kinase C theta type (PRKCQ, Homo sapiens, UniProt Q04759); cell-free assay, competition with immobilised ligand: 100%
Tyrosine-protein kinase ABL1, phosphorylated (ABL1, Homo sapiens, UniProt P00519, F317I); binding: 76.4%
Tyrosine-protein kinase Srms (SRMS, Homo sapiens, UniProt Q9H3Y6); cell-free assay, competition with immobilised ligand: 67.4%
Myotonin-protein kinase (DMPK, Homo sapiens, UniProt Q09013); cell-free assay, competition with immobilised ligand: 95.6%
Beta-adrenergic receptor kinase 1 (GRK2, Homo sapiens, UniProt P25098); cell-free assay, competition with immobilised ligand: 91.8%
Receptor tyrosine-protein kinase erbB-3 (ERBB3, Homo sapiens, UniProt P21860); cell-free assay, competition with immobilised ligand: 96.2%
Mast/stem cell growth factor receptor Kit (KIT, Homo sapiens, UniProt P10721, L576P); cell-free assay, competition with immobilised ligand: 40.7%
Cyclin-dependent kinase 18 (CDK18, Homo sapiens, UniProt Q07002); cell-free assay, competition with immobilised ligand: 98.4%
Tyrosine-protein kinase JAK1, JH1 (JAK1, Homo sapiens, UniProt P23458); cell-free assay, competition with immobilised ligand: 100%
Receptor tyrosine-protein kinase erbB-2 (ERBB2, Homo sapiens, UniProt P04626); cell-free assay, competition with immobilised ligand: 84.2%
Rho-associated protein kinase 2 (ROCK2, Homo sapiens, UniProt O75116); cell-free assay, competition with immobilised ligand: 66.2%
Mitogen-activated protein kinase kinase kinase 11 (MAP3K11, Homo sapiens, UniProt Q16584); cell-free assay, competition with immobilised ligand: 100%
RAC-gamma serine/threonine-protein kinase (AKT3, Homo sapiens, UniProt Q9Y243); cell-free assay, competition with immobilised ligand: 95.6%
Receptor-type tyrosine-protein kinase FLT3 (FLT3, Homo sapiens, UniProt P36888, F691L/ITD); cell-free assay, competition with immobilised ligand: 69.3%
Cytoplasmic tyrosine-protein kinase BMX (BMX, Homo sapiens, UniProt P51813); cell-free assay, competition with immobilised ligand: 76.7%
MAP kinase-activated protein kinase 2 (MAPKAPK2, Homo sapiens, UniProt P49137); cell-free assay, competition with immobilised ligand: 100%
Serine/threonine-protein kinase ULK2 (ULK2, Homo sapiens, UniProt Q8IYT8); cell-free assay, competition with immobilised ligand: 100%
Receptor-type tyrosine-protein kinase FLT3 (FLT3, Homo sapiens, UniProt P36888, D835V); cell-free assay, competition with immobilised ligand: 85.2%
Tyrosine-protein kinase JAK1, JH2 (JAK1, Homo sapiens, UniProt P23458); cell-free assay, competition with immobilised ligand: 93.1%
Tyrosine-protein kinase ABL1, non-phosphorylated (ABL1, Homo sapiens, UniProt P00519, T315I); cell-free assay, competition with immobilised ligand: 33.4%
Dual specificity tyrosine-phosphorylation-regulated kinase 1B (DYRK1B, Homo sapiens, UniProt Q9Y463); cell-free assay, competition with immobilised ligand: 100%
Calcium/calmodulin-dependent protein kinase type II subunit beta (CAMK2B, Homo sapiens, UniProt Q13554); cell-free assay, competition with immobilised ligand: 87.5%
Citron Rho-interacting kinase (CIT, Homo sapiens, UniProt O14578); cell-free assay, competition with immobilised ligand: 69.9%

Study 2 — action: inhibitor; tested at: 10 µM; relative to: control; quantity: remaining activity
Target: Diamine acetyltransferase 1 (Homo sapiens, UniProt P21673)
Target sequence (P21673 1-171): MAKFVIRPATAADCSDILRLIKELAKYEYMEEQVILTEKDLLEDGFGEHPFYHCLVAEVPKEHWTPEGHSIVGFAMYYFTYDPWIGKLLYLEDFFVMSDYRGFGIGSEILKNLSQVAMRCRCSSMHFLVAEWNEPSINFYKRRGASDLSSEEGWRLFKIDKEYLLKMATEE
CCCCC/C=C\C/C=C\CCCCCCCC(=O)OCC: 95.8%
C=C1CCC2(C(C)C)CC12 (stereo not shown): 101%
CC12CC3OC4O[C@H](CO)[C@@H](O)[C@H](O)[C@H]4OC34CC1C4(COC(=O)c1ccccc1)C(=O)O2 (stereo partly shown): 79%
O=C(O)c1ccc[nH]1: 90.6%
O=c1c(-c2ccc(O)cc2)coc2c([C@@H]3O[C@H](CO[C@@H]4OC[C@](O)(CO)[C@H]4O)[C@@H](O)[C@H](O)[C@H]3O)c(O)ccc12: 93%
CCCCCCCCCCCCCCCCCC(=O)OC: 95.7%
CC(C)(O)[C@@H]1Cc2cc3ccc(=O)oc3cc2O1: 86.5%
COc1cc(/C=C/CO)ccc1O: 110%
O=C(/C=C/c1ccc(O)c(O)c1)OC[C@H]1O[C@@H](OCCc2ccc(O)c(O)c2)[C@H](O)[C@@H](O)[C@@H]1O: 105%
CCC(=O)c1c(O)cc(O)cc1O: 93.4%
CCCCCCCCCCCCCCCCCCCCCCCCC(=O)O: 101%
COc1ccc2c(c1OC)CN(C)c1c-2ccc2cc3c(cc12)OCO3: 102%

Study 3 — read-out: enzyme activity; action: inhibitor; tested at: 10 µM; quantity: inhibition
Target: Calcium/calmodulin-dependent protein kinase type II subunit alpha (CAMK2A, Homo sapiens, UniProt Q9UQM7)
UniProt Q9UQM7, sequence (whole entry, looked up): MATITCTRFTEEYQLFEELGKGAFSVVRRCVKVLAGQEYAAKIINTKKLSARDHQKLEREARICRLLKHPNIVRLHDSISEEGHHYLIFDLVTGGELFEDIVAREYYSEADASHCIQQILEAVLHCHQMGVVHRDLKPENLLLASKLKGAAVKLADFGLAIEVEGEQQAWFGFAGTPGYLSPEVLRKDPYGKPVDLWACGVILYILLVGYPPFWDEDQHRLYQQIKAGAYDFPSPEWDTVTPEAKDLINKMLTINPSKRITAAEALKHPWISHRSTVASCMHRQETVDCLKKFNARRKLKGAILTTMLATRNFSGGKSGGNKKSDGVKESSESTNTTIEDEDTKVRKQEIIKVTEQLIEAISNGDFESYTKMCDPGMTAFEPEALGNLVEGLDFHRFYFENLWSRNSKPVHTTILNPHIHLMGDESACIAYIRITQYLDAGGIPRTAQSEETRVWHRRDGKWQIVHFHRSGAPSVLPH
CC(C)(C)NCC(O)c1cc(O)cc(O)c1 (stereo not shown): -7%
O=Cc1ccc(CO)o1: -12%
O=[N+]([O-])O[C@@H]1CO[C@H]2[C@@H]1OC[C@@H]2O: 5%
CCCCC/C=C/C=C/C(=O)NCC(C)C: -11%
NS(=O)(=O)c1cc2c(cc1Cl)N=CNS2(=O)=O: -2%
C[C@@H](CO[C@@H]1O[C@H](CO)[C@@H](O)[C@H](O)[C@H]1O)[C@@H]1CC[C@@]2(CC[C@]3(C)[C@H](CC[C@@H]4[C@@]5(C)CC[C@H](O[C@@H]6O[C@H](CO)[C@@H](O)[C@H](O)[C@H]6O[C@@H]6OC[C@@H](O)[C@H](O)[C@H]6O)[C@@](C)(CO[C@@H]6O[C@H](CO)[C@@H](O)[C@H](O)[C@H]6O)[C@@H]5CC[C@]43C)[C@H]2O)CO1: -74%
C/C=C/SC[C@H](N)C(=O)O: -11%
CN1C(=O)CC[C@H]1c1cccnc1: 21%
COc1cc(O)c2c(=O)c(OC)c(-c3ccc(OC)c(O)c3)oc2c1: 5%
CC1=C(/C=C/C(C)=C/C=C/C(C)=C/C(=O)Nc2ccc(O)cc2)C(C)(C)CCC1: -8%
CC(C)C[C@H](N)C(=O)O: 26%
C[C@@H]1O[C@@H](O[C@H]2[C@H](O[C@H]3CC[C@@]4(C)[C@@H](CC[C@]5(C)[C@@H]4CC=C4[C@@H]6CC(C)(C)CC[C@]6(C(=O)O[C@@H]6O[C@H](CO[C@@H]7O[C@H](CO)[C@@H](O[C@@H]8O[C@@H](C)[C@H](O)[C@@H](O)[C@H]8O)[C@H](O)[C@H]7O)[C@@H](O)[C@H](O)[C@H]6O)CC[C@]45C)[C@]3(C)CO)OC[C@H](O)[C@@H]2O)[C@H](O)[C@H](O)[C@H]1O: 12%
CCOC(=O)c1ccc(C#Cc2ccc3c(c2)C(C)(C)CCS3)nc1: -10%
COC(=O)/C=C/C(C)=C\C=C\C(C)=C\C=C\C=C(C)\C=C\C=C(C)\C=C\C(=O)O: -20%
CC(C)=CCC/C(C)=C/Cc1c(O)c(CC=C(C)C)c2c(c1O)C(=O)C1=C[C@@H]3C[C@H]4C(C)(C)O[C@@](C/C=C(/C)C(=O)O)(C3=O)[C@@]14O2: -77%
O=C(O)CCCCCCCC(=O)O: 16%
C[C@H](CC(=O)O)[C@H]1CC[C@H]2[C@@H]3[C@H](O)C[C@@H]4C[C@H](O)CC[C@]4(C)[C@H]3C[C@H](O)[C@]12C: 44%

Study 4 — read-out: enzyme activity; action: inhibitor; tested at: 0.5 µM; relative to: control; quantity: remaining activity
Compound: CCCC(=O)Oc1ccc2[nH]c(C(=O)c3cc4ccccc4[nH]3)cc2c1
Rho-associated protein kinase 2 (ROCK2, Homo sapiens, UniProt O75116): 103%
Proto-oncogene tyrosine-protein kinase receptor Ret (RET, Homo sapiens, UniProt P07949): 100%
Aurora kinase A (AURKA, Homo sapiens, UniProt O14965): 94.6%
Protein-tyrosine kinase 2-beta (PTK2B, Homo sapiens, UniProt Q14289): 87.6%
Myotonin-protein kinase (DMPK, Homo sapiens, UniProt Q09013): 94.4%
NT-3 growth factor receptor (NTRK3, Homo sapiens, UniProt Q16288): 95.9%
Epidermal growth factor receptor (EGFR, Homo sapiens, UniProt P00533): 95.2%
STE20-like serine/threonine-protein kinase (SLK, Homo sapiens, UniProt Q9H2G2): 98.9%
Calcium/calmodulin-dependent protein kinase type 1G (CAMK1G, Homo sapiens, UniProt Q96NX5): 100%
Homeodomain-interacting protein kinase 3 (HIPK3, Homo sapiens, UniProt Q9H422): 94.7%
Mitogen-activated protein kinase kinase kinase 8 (MAP3K8, Homo sapiens, UniProt P41279): 97.6%
Mitogen-activated protein kinase 10 (MAPK10, Homo sapiens, UniProt P53779): 100%
Cyclin-dependent kinase 2, with cyclin A (CDK2, Homo sapiens, UniProt P24941): 88.9%
Serine/threonine-protein kinase N2 (PKN2, Homo sapiens, UniProt Q16513): 100%
Mitogen-activated protein kinase kinase kinase 2 (MAP3K2, Homo sapiens, UniProt Q9Y2U5): 81.7%
Serine/threonine-protein kinase Nek9 (NEK9, Homo sapiens, UniProt Q8TD19): 110%
Dual specificity tyrosine-phosphorylation-regulated kinase 4 (DYRK4, Homo sapiens, UniProt Q9NR20): 86%
G protein-coupled receptor kinase 5 (GRK5, Homo sapiens, UniProt P34947): 100%
Serine/threonine-protein kinase D1 (PRKD1, Homo sapiens, UniProt Q15139): 88.7%
Calcium/calmodulin-dependent protein kinase type 1D (CAMK1D, Homo sapiens, UniProt Q8IU85): 103%
Proto-oncogene tyrosine-protein kinase ROS (ROS1, Homo sapiens, UniProt P08922): 97%
Cyclin-dependent kinase 7 (CDK7, Homo sapiens, UniProt P50613): 98.7%
Serine/threonine-protein kinase BRSK1 (BRSK1, Homo sapiens, UniProt Q8TDC3): 99.5%
